Results pooled from the literature.
Compare with care: the assays were run in different laboratories. “And” joins repeats or separate records; there may be more than shown. ± gives the spread as reported.
UCHL1: Ubiquitin carboxyl-terminal hydrolase isozyme L1 (UCHL1, Homo sapiens, UniProt P09936)
Sequence of UniProt P09936 (whole entry, looked up): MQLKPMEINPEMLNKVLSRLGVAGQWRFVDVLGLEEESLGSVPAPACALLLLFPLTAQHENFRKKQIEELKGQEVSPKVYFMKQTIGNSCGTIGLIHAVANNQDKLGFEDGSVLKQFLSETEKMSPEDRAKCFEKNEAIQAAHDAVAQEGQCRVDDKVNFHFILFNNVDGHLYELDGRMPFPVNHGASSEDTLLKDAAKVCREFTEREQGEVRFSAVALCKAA

Nc1ccn([C@H]2CC[C@@H](CO)O2)c(=O)n1
mitochondrial DNA content (HepG2; qPCR; 2.0 µM, 10 days, 3; baseline: untreated): 25.1 ± 7.8%

CCOC(=O)c1nn(-c2cccc(Cl)c2)/c(=N/N=C(\C)c2ccc(NC(=O)c3ccccc3)cc2)s1
cytotoxicity (HepG2; MTT; 0.078 µM): 18.1%

NC[C@@H](OCC(=O)N1CCC[C@H](C(=O)NCc2nc(-c3ccc(C(F)(F)F)cc3)cs2)C1)c1ccccc1
EC50 (HepG2; cytotoxicity): ~20 µM

Clc1ccc(C2(c3ccc(-c4ccnc5[nH]ccc45)cc3)CCNCC2)cc1
mRNA level (HepG2; qPCR, item: CYR61; 5 µM, 4 h; baseline: DMSO): 7 fold

Nc1n[nH]c2nc(-c3cccc(O)c3)cc(-c3cc4cc(Cl)ccc4nc3N3CCOCC3)c12
selectivity ratio (HepG2; MTT; baseline: WI-38 EC50 over HepG2 IC50): 1.47

CCOC(=O)c1sc(=NN=C(C)c2c(O)c3ccccc3oc2=O)n(C)c1C
selectivity index (HepG2; cell growth, MTT; baseline: IC50 BJ-1 over HepG2): > 2.42

COc1ccc(NC(=O)c2c(Nc3ccccc3)sc(C#N)c2NC(=O)CNc2ccc(Cl)cc2)cc1
active caspase-7 level (HepG2; ELISA; IC50, 24 h): 246 ± 18.6 pg/mL

COc1cc([C@@H]2c3cc4c(cc3[C@@H](O[C@@H]3O[C@@H]5CO[C@@H](C)O[C@H]5[C@H](O)[C@H]3O)[C@H]3COC(=O)[C@H]23)OCO4)cc(OC)c1O
selectivity index (HepG2; MTT; baseline: IC50 MRC-5 over IC50 HepG2): 0.3

COc1cccc2c1C(=O)c1c(O)c3c(c(O)c1C2=O)C[C@@](O)(C(=O)CO)C[C@@H]3O[C@H]1C[C@H](N)[C@H](O)[C@H](C)O1
point of departure (HepG2; item: PERK protein; 24 h, distribution mode 2): 0.219 µM

COc1ccc(-n2nc(C(C)=O)s/c2=N\N=C(/C)c2ccc(NC(=O)c3ccc(C)cc3)cc2)cc1
viability (HepG2; 0.156 µM): 53.8%

CCn1cc(-c2cc(Cn3ccoc3=N)cc3c2CCN([C@@H](C)c2cc(OC)ccn2)C3=O)c(C(F)(F)F)n1
EC50 (HepG2; cell growth, inhibitor; 120 h): 1.44 µM

CC(=O)c1nn(-c2ccc(Cl)cc2)/c(=N/N=C(\C)c2ccc(NC(=O)c3ccc(C)cc3)cc2)s1
viability (HepG2; 0.156 µM): 45.2%

CCOC(=O)c1cccc(NC(=O)c2sccc2S(=O)(=O)N(C)c2cccc(OCC)c2)c1
EC50 (HepG2; SRE promoter reporter, activator, luciferase reporter): 31 µM

NC(=S)N/N=C1\C(=O)N(CCn2cnc3c(N)ncnc32)c2ccc(F)cc21
IC50 (HepG2; cell growth, SRB; 72 h): 22.3 ± 6.44 µg/mL

CC(=NN=c1scc(-c2ccccc2)n1C)c1c(O)c2ccccc2oc1=O
selectivity index (HepG2; cell growth, MTT; baseline: IC50 BJ-1 over HepG2): > 1.51

O=C(NCc1cn(-c2ccccc2)nc1-c1ccccc1)c1cc([N+](=O)[O-])cc([N+](=O)[O-])c1
inhibition (Trypanosoma cruzi; reporter translation, Renilla luciferase mRNA translation; cell-free extract; 40 µM; baseline: DMSO): 14%

CCCCNC(=O)C(C#N)=Cc1ccc(Cl)cc1
labelling (UCHL1; covalent, intact protein LC-MS; 12.5 µM): 18.4%

Cc1nc2ccccc2n(CC(=O)Nc2ccc(C(=O)Nc3cccc(Cl)c3)cc2)c1=O
early apoptotic cells (HepG2; Annexin V-FITC/PI staining; 2.3 µM): 35.8 ± 3.18%

CC(=O)Nc1ccc(/C(C)=N/N=c2\sc(C(C)=O)nn2-c2ccc(C)cc2)cc1
cytotoxicity (HepG2; MTT; 5 µM): 14%

N#C[C@@]1(c2ccc3c(N)ncnn23)O[C@H](CO)[C@@H](O)[C@H]1O
mitochondrial DNA content (HepG2; qPCR; 1.0 µM, 10 days, 3; baseline: untreated): 96.1 ± 31.5%

CCOC(=O)/C=C\C(=O)OCC
point of departure (HepG2; high content imaging, item: DNA structure; 24 h, representative mode): 186 µM and 204 µM

c1cnc2c(c1)ccc1cccnc12
TNF-α mRNA level (HepG2; 25 µg/mL; baseline: untreated): increased

O=C(CCc1ccc(O)cc1)c1c(O)cc(O)cc1O
IC50 (HepG2; cell viability, MTT; 24 h): 239 µM

CC(=O)c1nn(-c2ccccc2Cl)/c(=N/N=C(\C)c2ccc(NC(=O)c3ccccc3)cc2)s1
cytotoxicity (HepG2; MTT; 10 µM): 93.9%

CCC1=C(CC)/C(=C/NC23CC4CC(CC(C4)C2)C3)N=C1c1cc2ccccc2[nH]1
selectivity index (HepG2; baseline: HepG2 IC50 over P. falciparum D6 IC50): 99.8

CC(C)(C)c1cc(O)ccc1O
point of departure (HepG2; extracellular flux, item: reserve respiratory capacity; 1 h, representative mode): 14.1 µM

COc1ccc(-n2nc(C(C)=O)s/c2=N\N=C(/C)c2ccc(NC(=O)c3ccccc3)cc2)cc1
viability (HepG2; 0.312 µM): 89.4%

O=C(/C=C/c1cccc(S(=O)(=O)Nc2ccccc2)c1)NO
IL-1β mRNA level (HepG2; 25 µg/mL; baseline: untreated): decreased

C#CCN1CCN(Cc2c(O)ccc3oc(-c4ccc(OC)cc4)c(C(=O)OCC)c23)CC1
IC50 (HepG2; cytotoxicity, resazurin; up to 200 µM, 18 h): not toxic

CC(=O)c1nn(-c2ccc(Cl)cc2)/c(=N/N=C(\C)c2ccc(NC(=O)c3ccc(Cl)cc3)cc2)s1
viability (HepG2; 5 µM): 61.9%

CCOc1ccc(N(C)S(=O)(=O)c2cc(Cl)sc2C(=O)Nc2ccc3c(c2)C(=O)NC3=O)cc1OC
EC50 (HepG2; SRE promoter reporter, activator, luciferase reporter): 29 µM

CC(=NN=C1SCC(=O)N1C)c1c(O)c2ccccc2oc1=O
selectivity index (HepG2; cell growth, MTT; baseline: IC50 BJ-1 over HepG2): > 1.52

CCOC(=O)c1nn(-c2cccc(Cl)c2)/c(=N/N=C(\C)c2ccc(NC(=O)c3ccc(Cl)cc3)cc2)s1
cytotoxicity (HepG2; MTT; 2.5 µM): 97.1%

CCc1ccc(CCOc2ccc(CC3SC(=O)NC3=O)cc2)nc1 (stereo not drawn)
point of departure (HepG2; CellTiter-Glo, item: cellular ATP; 24 h, representative mode): 4.47 µM

CC(=O)c1nn(-c2ccc(C)cc2)/c(=N/N=C(\C)c2ccc(NC(=O)c3ccccc3)cc2)s1
cytotoxicity (HepG2; MTT; 2.5 µM): 93.2%

CCOC(=O)c1sc(=NN=C(C)c2c(O)c3ccccc3oc2=O)n(CC)c1C
selectivity index (HepG2; cell growth, MTT; baseline: IC50 BJ-1 over HepG2): > 2.22

COc1ccc(NC(=O)c2c(Nc3ccccc3)sc(C(=O)NN=Cc3ccc(OC)c(O)c3)c2NC(C)=O)cc1
Bcl-2 level (HepG2; ELISA; IC50, 24 h): 357 ± 21.3 pg/mL

CN(CCOc1ccc(CC2SC(=O)NC2=O)cc1)c1ccccn1 (stereo not drawn)
point of departure (HepG2; TMRE, item: mitochondrial membrane potential; 24 h, distribution mode 1): 3.89 µM

NC(=S)N/N=C1\C(=O)N(CCn2ncc3c(=O)[nH]cnc32)c2ccc(F)cc21
IC50 (HepG2; cell growth, SRB; 72 h): 9.96 ± 3.35 µg/mL

C[C@H]1O[C@@H](O[C@H]2CC[C@@]3(C)[C@@H](CC[C@]4(C)[C@@H]3C=C[C@]35OC[C@@]6(CCC(C)(C)C[C@H]63)[C@@H](O)C[C@]54C)[C@]2(C)CO)[C@H](O)[C@@H](O[C@@H]2O[C@H](CO)[C@@H](O)[C@H](O)[C@H]2O)[C@H]1O
ROS level (HepG2; flow cytometry; concentration not given, high concentration, unit not given, with: ethanol; baseline: control): 1.33 and 1.09 and 1.91

O=C(O)Cc1ccccc1Nc1c(Cl)cccc1Cl
representative mode point of departure (HepG2; protein level, item: BiP; 24 h): 126 µM

CC(C)/N=c1\cc2n(-c3ccc(Cl)cc3)c3ccccc3nc-2cc1Nc1ccc(Cl)cc1
inhibition (Trypanosoma cruzi; reporter translation, Renilla luciferase mRNA translation; cell-free extract; 40 µM; baseline: DMSO): -5%

N#CC(=Cc1ccc(OC(F)F)cc1)C(=O)Nc1nccs1
labelling (UCHL1; covalent, intact protein LC-MS; 12.5 µM): 21.3%

CCOC(=O)c1cccc(NC(=O)c2sccc2S(=O)(=O)N(C)c2ccc(OCC)cc2)c1
EC50 (HepG2; SRE promoter reporter, activator, luciferase reporter): > 25 µM

CC(=NN=c1scc(C)n1C)c1c(O)c2ccccc2oc1=O
selectivity index (HepG2; cell growth, MTT; baseline: IC50 BJ-1 over HepG2): > 2.17

Some of these lines once more:
Nc1ccn([C@H]2CC[C@@H](CO)O2)c(=O)n1
mitochondrial DNA content (HepG2; qPCR; 2.0 µM, 10 days, 3; baseline: untreated): 25.1 ± 7.8%

CCOC(=O)c1nn(-c2cccc(Cl)c2)/c(=N/N=C(\C)c2ccc(NC(=O)c3ccccc3)cc2)s1
cytotoxicity (HepG2; MTT; 0.078 µM): 18.1%

NC[C@@H](OCC(=O)N1CCC[C@H](C(=O)NCc2nc(-c3ccc(C(F)(F)F)cc3)cs2)C1)c1ccccc1
EC50 (HepG2; cytotoxicity): ~20 µM

Clc1ccc(C2(c3ccc(-c4ccnc5[nH]ccc45)cc3)CCNCC2)cc1
mRNA level (HepG2; qPCR, item: CYR61; 5 µM, 4 h; baseline: DMSO): 7 fold

Nc1n[nH]c2nc(-c3cccc(O)c3)cc(-c3cc4cc(Cl)ccc4nc3N3CCOCC3)c12
selectivity ratio (HepG2; MTT; baseline: WI-38 EC50 over HepG2 IC50): 1.47
